Results pooled from the literature.
A part holds a random share of what one study measured. Substitutions count along the parent as printed.

Set 1
Target: Interferon regulatory factor 7, full length, phosphomimetic (IRF7, Homo sapiens, UniProt Q92985, residues 1-503, S471D/S472D/S475D/S476D/S477D/S483D/S484D/S487D)
UniProt Q92985, sequence (whole entry, unmodified, looked up): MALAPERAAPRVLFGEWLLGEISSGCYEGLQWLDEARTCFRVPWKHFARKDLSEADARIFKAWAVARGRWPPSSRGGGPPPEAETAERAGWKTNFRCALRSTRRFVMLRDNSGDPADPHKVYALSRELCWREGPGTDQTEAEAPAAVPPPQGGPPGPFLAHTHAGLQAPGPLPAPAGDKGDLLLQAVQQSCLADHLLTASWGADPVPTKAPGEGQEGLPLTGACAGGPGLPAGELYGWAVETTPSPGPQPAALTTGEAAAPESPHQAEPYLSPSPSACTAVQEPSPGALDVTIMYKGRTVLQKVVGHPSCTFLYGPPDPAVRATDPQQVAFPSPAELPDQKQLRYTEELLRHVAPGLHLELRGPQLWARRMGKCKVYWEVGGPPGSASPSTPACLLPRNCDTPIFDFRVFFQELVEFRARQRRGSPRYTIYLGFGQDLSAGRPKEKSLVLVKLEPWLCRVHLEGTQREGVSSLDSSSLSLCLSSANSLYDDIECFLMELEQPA
Method: protein-binding microarray
Form: double-stranded DNA, one strand shown
Matrix: in vitro
Concentration: 2200 nM top
Setting: 60-bp whole probe
Together with: salmon DNA 0.4 mg/ml
Reference: random background probes
Direction: higher = stronger binding
Endpoint: fitted relative affinity
All sequences stand within: GCCTAGCAC … GTCTTGATTCGCTTGACGCTGCTG
GACCAACTGAGACTGGAGACGTGCTAG: -0.277 z-score
TTAGATTTTAGTATCGATTAGTGCTAG: 0.246 z-score
TCACTTTTCATTTTCTTACTGTGCTAG: 5.81 z-score
GTCAGGGGTCTTGCTCTGTAGTGCTAG: -0.78 z-score
AGAAATTTTTTTTCTAACTAGTGCTAG: -0.548 z-score
TTCGATTTCAGTATCGATTAGTGCTAG: 2.05 z-score
GACGGTTTCCTTATCCGGACGTGCTAG: 2.72 z-score
TTAGGTATAGGTCTCGGTTAGTGCTAG: 0.27 z-score
ATAGATTTCAGTTCCGATTAGTGCTAG: 2.06 z-score
TTAGGACTAGGGACTGGGTTAGTGCTA: -0.963 z-score
GTAGATTTCGGGTTTCGATTAGTGCTA: 6.67 z-score
TCACATTAAATTTTAATACTGTGCTAG: 0.231 z-score
TCAATTCTGAAAATGGAACTGTGCTAG: 0.106 z-score
GACGGTCTCGGTTTCGGGGCGTGCTAG: 2.83 z-score
CTATATTTGCTTCAGGTTTAGTGCTAG: 1.56 z-score
GACGATATCGGGACTTGAGACGTGCTA: -0.111 z-score
TTAGGTATCGGGTATGGGTTAGTGCTA: 0.272 z-score
GACGAACTGGGTTTTCGAGACGTGCTA: 1.38 z-score
TTAGGACTGCTTCACCTTTAGTGCTAG: 0.419 z-score
GACGGTATCGACTATCGCGACGTGCTA: 0.0103 z-score
TTAGGTTTCGGTTTCGGTTGGTGCTAG: 17.7 z-score
GAAGGTCTCGGTATCGGGACGTGCTAG: 0.339 z-score
TCCAGGCTGGTCTCTAACTCAGTGCTA: -0.274 z-score
TTGGGTATCCTTATCCTTTAGTGCTAG: 0.752 z-score

Set 2
Target: RNA binding protein fox-1 homolog 2, RRM domain, GST-SBP tag (RBFOX2, Homo sapiens, UniProt O43251-10, residues 100-194)
Method: RNA Bind-n-Seq
Form: RNA
Matrix: in vitro
Concentration: 365 nM
Setting: natural RNA segment, single round, ends assumed
Reference: no-protein control
Direction: higher = stronger binding
Endpoint: RBNS enrichment (R)
All sequences stand within: GGGAGUUCUACAGUCCGACGAUC … UGGAAUUCUCGGGUGCCAA
Target sequence (chain): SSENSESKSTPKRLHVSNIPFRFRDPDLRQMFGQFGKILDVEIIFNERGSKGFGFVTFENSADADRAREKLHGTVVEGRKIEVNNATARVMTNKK
AUAACACUAAAUUCUUCCUGAGAAAUGACUCCUCUUGGUUUGGUUUGAAGUUUUUCAGUGAAGGAAAAGGCCUGAGAUAGGAAGCAGUGCCCUCGCUUCAUGAGGUGGCA: 0.593
UCCCUUUUGUCUGGACUGACCUGACCCAUGAUGUUUGGACUACAUGUAGGUGAGCGCCCGCAUUGCAAAGCUGACUCAGGUCCACUGGGCUGAAGGUCCCUUGGAGCCCA: 0.614
GCCACUUCUAUCAUUUUUGAGCAACUCCCUCUCAGCUAAAAGGCCACCCCUUUAUCGCAUUGCUGUCCUUGGGUAGAAUAUAAAAUAAAGGGACUUUUAUUUCUUAUUGG: 0.62
CAUUUGUUCACAGGAGUUUUUGGUGCGGGGUGGGAAGGAUGGAAGGCCUUGGAUUUAUAUUGCACUUCAUAGACCCCUAGGCUGCUGUGCGGUGGGACUCCACAUGCGCC: 3.19
AGAGAAAUGUCUGUCCAUUUUUAUUCAGGGGAAACUUGAUUUGAGAUUUUUAUGCCUGUGACUUCCUUGGAAAUCAAAUGUAAAGUUUAAUUGAAAGAAUGUAAAGCAAC: 5.26
UAAUGCUUUGUUAAAGAACCCCCUUUCCGUGCCACUGGUGAAUAGGGAUUGAUGAAUGGGAAGAGUUGAGUCAGACCAGUAAGCCCGUCCUGGGUUCCUUGAACAUGUUC: 0.614
AAUGUCACAAGAAAUUGUUUUCUGCAAAUUCUCUAGUAUAGAAAGUUUUGUAGAAGAAAAAUUAUUGUGUUUAGGGGUAUAAUAUUAUAUGUUUUCAUAUUAUGAAAUGA: 0.589
CGUUCUUUCCCCAAUCCCCAGGAAUGGACAAGAAGCCAACUUAGAAAGAAGGGUCUCACGUGGCUGGCCUGGCUCCUCCGUAGACCCCUGUUCUUUUCAACCUCUGCCCA: 0.493
GAAUUGUUUUAUGUACACUUGUCAGGCAGAAAAGGUAGUGACCGGCCCGGCGUGGGCACACAGACAGCCCGCUUUGUUCUUUCAUUUCCUCCAGCACUUUCUUUCCGCCU: 0.242
GGAUGUCUUUGGUAUUUUCUGUAGUAGAAACUAAAGCAAAGACCACAAGUUUCAGAGCAUGGAGACAUUCCUGCUGAAUCGCCUUCUCACCUCCUCGGCAAUUGCUCAUU: 0.333
UACUCCACGCUGUAUAUCUUUCCAUGCUCCGGCUGCCUGGACCAGUAAAUAAAAUGGAUGUAAUAUAAGUUGUAAGUAACGUUGUCAAAACUCUGAUCCCGAUGGAGGCU: 0.437
UUGUUGUGGCCUUCCUGGUGUAAGAGUCUGUGUUCCUUGGUCACCUCUCCUGAUUCAGACCAGCUCCAUCAAGCAACCUCUUUUGACUUUCUGUAUAUGGAUGGCACAGA: 1.05

Set 3
Target: CCNA2, cyclin fold, Cln2 fusion (human)
Method: yeast growth competition, sequencing
Matrix: yeast
Setting: strong parent motif
Reference: not given
Direction: higher = stronger binding
Endpoint: normalised enrichment score
Starting sequence: SCAPER docking peptide (human); SNARRSLNFGGST
S6R: 6.85
G11V: 7.05
L7Q: 1.12
R5F: 0.523
S6N: 5.37
G10S: 5.43
S1Q: 5.67
L7G: 0.524
S6D: 1.54
N8M: 5.12
N8R: 5.01
N8S: 6.66
L7C: 0.917
A3Q: -0.0442
T13G: 6.15
S12D: 5.81
G11A: 6.4
S12E: 6.13
F9W: 4.14
L7I: 4.57
F9E: 0.161
T13P: 5.98
F9R: 1.04
S12V: 5.43
R4V: 3.65

Set 4
Target: Centromere-binding protein 1, full length, N-terminal tag (CBF1, Saccharomyces cerevisiae, UniProt P17106, residues 1-351)
UniProt P17106, sequence (whole entry, looked up): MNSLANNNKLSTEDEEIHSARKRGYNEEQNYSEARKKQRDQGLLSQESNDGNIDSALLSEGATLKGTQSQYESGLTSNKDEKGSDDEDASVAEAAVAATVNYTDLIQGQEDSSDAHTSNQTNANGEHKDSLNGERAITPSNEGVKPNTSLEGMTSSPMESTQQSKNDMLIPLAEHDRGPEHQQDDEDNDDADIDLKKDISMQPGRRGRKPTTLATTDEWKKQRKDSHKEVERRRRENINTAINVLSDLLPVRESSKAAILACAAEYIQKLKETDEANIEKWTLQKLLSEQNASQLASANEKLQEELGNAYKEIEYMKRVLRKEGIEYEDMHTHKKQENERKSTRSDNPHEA
Method: protein-binding microarray
Form: double-stranded DNA, one strand shown
Matrix: in vitro
Concentration: 0.8 µM
Setting: whole 60-bp probe, no competitor
Direction: higher = stronger binding
Endpoint: fluorescence intensity
All sequences stand within: … GTCTTGATTCGCTTGACGCTGCTG
GAAGTATGGACTCTTTGGGTGATGAAAAGTAATTAG: 532 a.u.
CTATTCCCCTTAGCACAGCTGATCCAACAATTTTTC: 591 a.u.
CTAATTGCTTTTTCTGACGTGCTTCCTTCACTATTC: 539 a.u.
TGTACGAAGCTATGGCATCAGGATATAGTAGTTAGG: 531 a.u.
CTAGTACGGAAAGATCACATGTATATATTTAACTTC: 2580 a.u.
GAATTTTAATTTCATGCCGTGATTCTTTAACTTTAG: 571 a.u.
CTATGGTATTAGCATCAGGTATACTTTAATTAATTC: 501 a.u.
CTAATAGTTCCCTCCCTGATGTTGATCTTACTATTC: 497 a.u.
CTAAGGGTGTTTCAGAAGGTGACTAAAATATCGTTC: 623 a.u.
CTACATATTCCTGATCAGATGAAAGTTAACGCTTTC: 578 a.u.
CTAACCTTTTTCCATCAGCTGGCAGGGAACGGATTC: 599 a.u.
GAAAGACGCACATACCGCGTGCGCGGAACTTTTTAG: 569 a.u.
GAAAAGCCTTTTCTCAACGTGACTGGAGTAACGTAG: 1360 a.u.
CCTAACTACTATAATCTGATGCTATAGCTTCGTACA: 505 a.u.
TGTACGAAGCTATGTTACGTGTATATAGTAGTTAGG: 532 a.u.
GAACTTATCGCTTTGCACGCGACTCTTTTTTCTTAG: 893 a.u.

Set 5
Target: ABI1, truncated, D143A, DHFR fusion (Arabidopsis thaliana, UniProt P49597)
Method: DHFR PCA, dose-response
Matrix: yeast
Setting: Hill fit, mean, not affinity
Together with: (+)-ABA, dose series
Direction: lower = more sensitive
Endpoint: ABA EC50
Starting sequence: PYL1, truncated, DHFR fusion (Arabidopsis thaliana, UniProt Q8VZS8); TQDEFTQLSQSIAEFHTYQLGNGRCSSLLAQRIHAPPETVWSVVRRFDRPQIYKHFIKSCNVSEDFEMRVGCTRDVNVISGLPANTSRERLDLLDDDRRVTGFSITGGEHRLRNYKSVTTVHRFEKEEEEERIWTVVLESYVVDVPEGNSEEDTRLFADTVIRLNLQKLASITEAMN
K168F: 46.9 µM
E109N: 2.56 µM
E129D: 1.34 µM
A13I: 5.01 µM
R111N: 24 µM
H55Y: 1.93 µM
F5I: 6.02 µM
V62A: 41.4 µM
T119M: 4.39 µM
A13R: 3.88 µM
F103V: 537 µM
G71M: 121 µM
E64A: 1.97 µM
I12S: 181 µM
S27E: 71.4 µM

Excerpt of the above (set 5):
T119M: 4.39 µM
A13R: 3.88 µM
F103V: 537 µM
G71M: 121 µM
E64A: 1.97 µM
I12S: 181 µM
S27E: 71.4 µM
